Published values pooled from the literature.
Every numbered part comes from another study and shows a few of its results, in no order. “And” joins repeats or separate records; there may be more than shown.
UniProt P15056, sequence (whole entry, unmodified, looked up): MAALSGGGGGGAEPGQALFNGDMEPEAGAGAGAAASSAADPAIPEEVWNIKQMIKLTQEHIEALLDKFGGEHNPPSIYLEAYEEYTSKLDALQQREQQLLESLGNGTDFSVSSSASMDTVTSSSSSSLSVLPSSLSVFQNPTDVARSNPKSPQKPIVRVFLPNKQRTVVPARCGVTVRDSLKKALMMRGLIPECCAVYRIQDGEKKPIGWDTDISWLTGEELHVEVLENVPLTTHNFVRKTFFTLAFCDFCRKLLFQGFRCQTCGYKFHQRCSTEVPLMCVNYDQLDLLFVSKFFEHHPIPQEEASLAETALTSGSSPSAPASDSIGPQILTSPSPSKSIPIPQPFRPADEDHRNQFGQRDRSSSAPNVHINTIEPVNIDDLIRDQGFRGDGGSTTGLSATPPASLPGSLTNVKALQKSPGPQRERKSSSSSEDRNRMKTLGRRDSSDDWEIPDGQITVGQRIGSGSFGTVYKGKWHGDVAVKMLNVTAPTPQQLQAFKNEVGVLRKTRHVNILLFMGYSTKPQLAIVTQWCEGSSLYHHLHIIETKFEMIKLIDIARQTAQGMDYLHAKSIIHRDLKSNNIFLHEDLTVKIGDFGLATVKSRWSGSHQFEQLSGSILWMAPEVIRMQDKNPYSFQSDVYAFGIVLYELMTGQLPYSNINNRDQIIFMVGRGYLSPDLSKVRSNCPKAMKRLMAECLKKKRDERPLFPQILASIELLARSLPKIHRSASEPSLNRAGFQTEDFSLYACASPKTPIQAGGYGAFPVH

Set 1
SMILES: CC(C)C[C@@H]1NC(=O)[C@@H](N(C)C(=O)[C@@H](NC(=O)[C@@H]2C[C@@H](F)CN2C(=O)C2(C(F)(F)F)CC(F)(F)C2)C2CC2)CCCCCCCN(C)C(=O)[C@H](Cc2cc(Cl)cnc2OC2CC2)N(C)C1=O
Route: oral
host	dose	time	tumour volume
mouse, sample A SCLC PDX	100 mg/kg three times daily	day 21	185 mm3 and 220 mm3 and 192 mm3 and 291 mm3 and 328 mm3
mouse, sample A SCLC PDX	100 mg/kg three times daily	day 25	214 mm3 and 216 mm3 and 211 mm3 and 377 mm3
NSG mice, sample B SCLC PDX	100 mg/kg twice daily	day 22	310 mm3 and 276 mm3 and 364 mm3 and 221 mm3 and 209 mm3
NSG mice, sample B SCLC PDX	100 mg/kg twice daily	day 1	229 mm3 and 158 mm3 and 272 mm3 and 202 mm3
NSG mice, sample B SCLC PDX	100 mg/kg twice daily	day 15	234 mm3 and 309 mm3 and 206 mm3 and 310 mm3 and 300 mm3
NSG mice, sample B SCLC PDX	100 mg/kg twice daily	day 19	312 mm3 and 206 mm3 and 203 mm3 and 224 mm3 and 265 mm3
NSG mice, sample B SCLC PDX	100 mg/kg twice daily	day 8	296 mm3 and 189 mm3 and 185 mm3 and 263 mm3 and 221 mm3

Set 2
Structure (SMILES): Cc1ncsc1-c1ccc(C(CO)NC(=O)C2CC(O)CN2C(=O)C(C(C)C)n2cc(-c3ccc(COc4c(-c5c(C)c(F)cc6[nH]ncc56)c(C5CC5)cc5c(N6CC7CC6CN7)nc(OC6CCOCC6)nc45)cc3)nn2)cc1 (centres unmarked)
Method: qRT-PCR
Host: mouse, PK-59 xenograft
Sample: tumour
Setting: unit not given
refers to	route	dose	time	baseline	mRNA level
MYC	intravenous	30 mg/kg	144 h	vehicle, same time point	0.0527 and 0.0684
ETV4	–	30 mg/kg	6 h	vehicle	0.919 and 0.785 and 0.509
ETV4	intravenous	30 mg/kg	2 h	vehicle, same time point	0.0141 and 0.0203 and 0.0133
DUSP4	–	10 mg/kg	144 h	vehicle	0.467 and 0.88 and 0.602
DUSP4	intravenous	10 mg/kg	2 h	vehicle, same time point	0.507 and 0.409 and 0.548
DUSP6	intravenous	30 mg/kg	24 h	vehicle, same time point	0.00689 and 0.00904 and 0.00794
SPRY4	–	10 mg/kg	48 h	vehicle	0.188 and 0.106 and 0.14
ETV4	–	10 mg/kg	72 h	vehicle	0.245 and 0.179 and 0.207
MYC	–	30 mg/kg	72 h	vehicle	0.641 and 0.367 and 0.449

Set 3
SMILES: Cc1ccc(O)c(C)c1-c1cnc2[nH]c(-c3cnc(N4CCC5(CC4)CC(N4CCN(c6ccc(N[C@H]7CCC(=O)NC7=O)cc6F)CC4)CO5)nc3)cc2c1C#N (single isomer, unassigned)
target	read-out	method	tested at	baseline	remaining binding [%]
MKNK2	–	KINOMEscan	1000 nM	control	81
CSNK2A2	–	KINOMEscan	1000 nM	control	47
BRAF (Homo sapiens, UniProt P15056, V600E)	binding	competition with immobilised ligand	1 µM	–	20
SRC	–	KINOMEscan	1000 nM	control	19
BRAF	–	KINOMEscan	1000 nM	control	14
LCK	–	KINOMEscan	1000 nM	control	97
CSNK1A1	–	KINOMEscan	1000 nM	control	86

Set 4
Structure (SMILES): CCN(CC)CC(=O)N1CCN(c2nc(NCc3nc4cc(Cl)c(Cl)cc4[nH]3)c3ncn(CC)c3n2)CC1
Read-out: cell viability
Method: CellCounting-Lite
Temperature: 37 °C
Direction: higher = more viable cells
cell line	tested at	luminescence signal
MDA-MB-231	31.25 nM	5410 a.u. and 6060 a.u. and 6520 a.u.
MDA-MB-231	0.007629 nM	461000 a.u. and 460000 a.u. and 491000 a.u.
MDA-MB-468	125 nM	11500 a.u. and 11200 a.u.
MDA-MB-468	500 nM	13500 a.u. and 14000 a.u. and 12700 a.u.
MDA-MB-468	0.03052 nM	108000 a.u. and 111000 a.u. and 124000 a.u.
MDA-MB-468	1.953 nM	16600 a.u. and 17700 a.u.
MDA-MB-468	7.812 nM	9870 a.u. and 8930 a.u. and 9300 a.u.
MDA-MB-468	0.1221 nM	64500 a.u. and 64600 a.u. and 54900 a.u.
MDA-MB-231	0.4883 nM	236000 a.u. and 206000 a.u. and 189000 a.u.

Some of these lines once more (set 3):
target	read-out	method	tested at	baseline	remaining binding [%]
BRAF (Homo sapiens, UniProt P15056, V600E)	binding	competition with immobilised ligand	1 µM	–	20
BRAF	–	KINOMEscan	1000 nM	control	14
